Measured values pooled from the literature.
Compare with care: the assays were run in different laboratories. ± marks the error that the study gave.

| Compound | assay | system | setting | quantity | value |
| --- | --- | --- | --- | --- | --- |
| CC[C@H](C)[C@@H]([C@@H](CC(=O)N1CCC[C@H]1[C@H](OC)[C@@H](C)C(=O)N[C@H](C)[C@@H](O)c1ccccc1)OC)N(C)C(=O)[C@@H](NC(=O)[C@H](C(C)C)N(C)C(=O)OCc1ccc(NC(=O)[C@H](CCCNC(N)=O)NC(=O)[C@@H](NC(=O)CCCCCN2C(=O)CC(SC[C@H](NC(=O)[C@H](CC(=O)O)NC(=O)[C@H](Cc3ccc(O)cc3)NC(=O)[C@H](Cc3c[nH]c4ccccc34)NC(=O)[C@@H](N)CCCNC(=N)N)C(=O)O)C2=O)C(C)C)cc1)C(C)C (some centres unmarked) | – | C57BL/6 mouse, healthy, serum | intraperitoneal, 2.5 mg/kg, 24 h | concentration | not detected |
| CCCCCCCCCCCCCCCCCCCCCCCCCC(=O)O[C@H](CCCCCCCCCCCCCC)[C@@H](O)[C@H](CO[C@H]1O[C@H](CO)[C@H](O)[C@H](O)[C@H]1O)NC(=O)OCOC(=O)CCCCCn1cc(CCC(=O)N[C@@H](Cc2ccccc2)C(=O)N[C@@H](Cc2ccccc2)C(=O)N[C@@H](CCCNC(=N)N)C(=O)N[C@@H](CCCCN)C(=O)N[C@@H](CO)C(=O)N[C@H](C(=O)N[C@H](C(=O)N[C@@H](CC(N)=O)C(=O)N[C@@H](Cc2ccccc2)C(=O)N[C@@H](CCC(=O)O)C(=O)N[C@@H](CCCCN)C(=O)N[C@@H](CC(C)C)C(=O)O)[C@@H](C)CC)[C@@H](C)CC)nn1 | HPLC-ESI-MS/MS | aqueous ammonium formate 50 mM | 10 µg/mL, eight days, pH 3.0, 20 °C | remaining α-GalCer level | < 0.05% |
| CC(C)C[C@H](NC(=O)[C@@H]1CCCN1C(=O)[C@H](CCCCN)NC(=O)[C@@H](N)CO)C(=O)N1CCC[C@H]1C(=O)N[C@@H](CCC(=O)O)C(=O)N[C@H](C(=O)N[C@H](C(=O)N[C@@H](CC(=O)O)C(=O)N[C@@H](CCC(=O)O)C(=O)N[C@@H](Cc1ccc(O)cc1)C(=O)NCC(=O)NCCOCCOCCOCCOCCC(=O)N[C@@H](CCCCNC(=O)CC[C@H](C(=O)O)N1CCN(CC(=O)O)CCN(CC(=O)O)CC1)C(=O)N1CCN(CCCN(C)c2ccc3nccc(C(=O)NCC(=O)N4CC(F)(F)C[C@H]4C#N)c3c2)CC1)[C@@H](C)O)C(C)C [copper-64 labelled] | PET | NMRI nude mouse, HT-1080 hFAP xenograft, tumour | intravenous, maximum tumour uptake | SUVmean | 3.4 SUV |
| CCCC[C@H](NC(=O)CN1CCC(NC(=S)Nc2ccc(C[C@H]3CN(CC(N)=O)CCN(CC(N)=O)CCN(CC(N)=O)CCN3CC(N)=O)cc2)CC1)C(=O)N[C@H]1CC(=O)NCCCC[C@@H](C(N)=O)NC(=O)[C@H](Cc2c[nH]c3ccccc23)NC(=O)[C@H](CCCNC(=N)N)NC(=O)[C@@H](Cc2ccccc2)NC(=O)[C@H](Cc2c[nH]cn2)NC1=O | iTLC | mouse serum | 72 h, 37 °C, lead-203-labelled | intact complex | 100% |
| CSCC[C@@H]1NC(=O)[C@@H]2CCCN2C(=O)[C@H](C(C)C)NC(=O)[C@@H](NC(=S)Nc2ccc(CC3CN(CC(=O)O)CCN(CC(=O)O)CCN3CC(=O)O)cc2)CSSC[C@@H](C(=O)O)NC(=O)[C@H](C)NC(=O)[C@H](CCCNC(=N)N)NC(=O)[C@H](Cc2ccc(O)cc2)NC(=O)[C@H]([C@@H](C)O)NC1=O (some centres unmarked) [gallium-68 labelled] | – | serum | 2 h | remaining compound | > 99% |
| CCCC[C@H](NC(=O)CN1CCC(NC(=O)CN2CCN(CC(N)=O)CCN(CC(N)=O)CCN(CC(N)=O)CC2)CC1)C(=O)N[C@H]1CC(=O)NCCCC[C@@H](C(N)=O)NC(=O)[C@H](Cc2c[nH]c3ccccc23)NC(=O)[C@H](CCCNC(=N)N)NC(=O)[C@@H](Cc2ccccc2)NC(=O)[C@H](Cc2c[nH]cn2)NC1=O [lead-203 labelled] | – | male C57BL/6J mice B16-F10 tumour, blood | intravenous, 20 pmol, 2 h | tissue uptake | < 1 %ID/g |
| N=C(N)NCCC[C@@H]1NC(=O)[C@H](CCCCNC(=O)CCC(NC(=S)Nc2ccc(CC3CN(CC(=O)O)CCN(CC(=O)O)CCN(CC(=O)O)CCN3CC(=O)O)cc2)C(=O)NCCCC[C@@H]2NC(=O)[C@@H](Cc3ccc(O)cc3)NC(=O)[C@H](CC(=O)O)NC(=O)CNC(=O)[C@H](CCCNC(=N)N)NC2=O)NC(=O)[C@@H](Cc2ccc(O)cc2)NC(=O)[C@H](CC(=O)O)NC(=O)CNC1=O (some centres unmarked) [scandium-44 labelled] | ex vivo γ-counting | female athymic nude mice, U-87 MG xenograft, lung | intravenous, 4 h | tissue uptake | 0.44 ± 0.23 %ID/g |
| Cc1ncsc1-c1ccc(CNC(=O)[C@@H]2C[C@@H](OC(=O)OCCSSCCn3cc(CCCC(=O)N[C@@H](Cc4ccc(O)cc4)C(=O)N[C@@H](CCCNC(=N)N)C(=O)N[C@@H](CCCNC(=N)N)C(=O)N[C@@H](CCCNC(=N)N)C(=O)N[C@@H](CCCNC(=N)N)C(=O)N[C@@H](CCCNC(=N)N)C(=O)N[C@@H](CCCNC(=N)N)C(=O)N[C@@H](CCCNC(=N)N)C(=O)N[C@@H](CCCNC(=N)N)C(=O)N[C@@H](CCCNC(=N)N)C(N)=O)nn3)CN2C(=O)[C@@H](NC(=O)COCCOCCOCCNC(=O)C[C@@H]2N=C(c3ccc(Cl)cc3)c3c(sc(C)c3C)-n3c(C)nnc32)C(C)(C)C)cc1 | UHPLC-UV | RPMI medium with 10% FBS | 0 h, 37 °C | remaining compound | 100% |
